Results of several laboratories.
Numbered parts are unrelated; each lists some results of a single study.

Block 1 — method: protein-binding microarray; form: double-stranded DNA, one strand shown; medium: in vitro; concentration: 0.8 µM; notes: whole 60-bp probe, no competitor; direction: higher = stronger binding; constant ends, left off below: … GTCTTGATTCGCTTGACGCTGCTG
Target: Centromere-binding protein 1, full length, N-terminal tag (CBF1, Saccharomyces cerevisiae, UniProt P17106, residues 1-351)
UniProt P17106, sequence (whole entry, looked up): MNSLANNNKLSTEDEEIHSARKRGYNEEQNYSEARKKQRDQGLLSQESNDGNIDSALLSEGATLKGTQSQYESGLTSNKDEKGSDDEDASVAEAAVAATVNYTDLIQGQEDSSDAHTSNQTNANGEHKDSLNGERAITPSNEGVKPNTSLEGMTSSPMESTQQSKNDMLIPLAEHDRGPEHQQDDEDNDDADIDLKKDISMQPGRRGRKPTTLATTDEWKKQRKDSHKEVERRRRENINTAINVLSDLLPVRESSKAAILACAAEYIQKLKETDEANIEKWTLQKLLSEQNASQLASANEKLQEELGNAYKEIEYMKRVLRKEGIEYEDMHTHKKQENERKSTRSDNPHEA
Sequence | fluorescence intensity [a.u.]
CTAGGCTACGTGCGTACACGTGTTTTGCGGTCTTTC | 4350
CCTAACTACTATAGAAATGTGCAATAGCTTCGTACA | 542
CTAGGAATAATCATCATCACCATTATCACTGTTTTC | 525
GAATAACACCGGGTTCTGATGTTATCACCTACTTAG | 478
CTATTGTTTATCTTGCACATGGCAAGGCCATCGTTC | 814

Block 2 — method: protein binding microarray; form: double-stranded DNA, one strand shown; medium: in vitro; concentration: not given; reference: not given; direction: higher = stronger binding
Target: Histone acetyltransferase KAT6A, both winged helices, GST fusion (KAT6A, Homo sapiens, UniProt Q92794, residues 1-181)
Notes: 8-mer, flanks averaged, mean of 2 arrays, mostly near background
Residues (chain): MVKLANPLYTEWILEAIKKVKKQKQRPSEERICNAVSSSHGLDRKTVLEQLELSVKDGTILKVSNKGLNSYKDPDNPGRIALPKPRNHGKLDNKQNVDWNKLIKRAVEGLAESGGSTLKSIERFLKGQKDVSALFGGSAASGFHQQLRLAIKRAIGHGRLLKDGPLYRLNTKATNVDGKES
Sequence | E-score
AACCGTAC | 0.179
ACGAGATC | -0.0187
AACTTGGG | -0.0931
CCAGTAAG | -0.118

Block 3 — method: RNA Bind-n-Seq; form: RNA; medium: in vitro; concentration: 365 nM; reference: no-protein control; direction: higher = stronger binding
Target: RNA binding protein fox-1 homolog 2, RRM domain, GST-SBP tag (RBFOX2, Homo sapiens, UniProt O43251-10, residues 100-194)
Notes: natural RNA segment, single round, ends assumed
Constant ends, left off below: GGGAGUUCUACAGUCCGACGAUC … UGGAAUUCUCGGGUGCCAA
Sequence | RBNS enrichment (R)
GCUGGCGACAACCCUCCUUUCUGCCUUUGACACUCAUGUGCUGGGACUACAGGCACACACCAGUACCACUCAGUCUUGUGCAGUGCUGGGGAUGAGCCCAGGGUUUCAUG | 0.404
UGGAGUGUAUCUGCUUAAGGGGUGAAGUUUGUUUUUUCUUGUCUCUGAAAACUAAGCCCUCAAUGAACGACUUAAUUAACUCACUGCAUUAGUCUCCAUAAUUGGUCUCG | 0.604
CGUAAAAGUAUCAAAUACUUUCUCCUUGGUAUCUCAAGGAGGUUUCUGAGAUAGGUAGAAGUCUUGAGACGGAGGCUGGCCAUCCAUUCAGCCCUGAGCGUGCUGAGUUC | 0.396
CUUCCUGGUCUUGCCAGGCACCUGCACAGAGCGUCUCCAGCCCCAUCUCCUAACGGGGGCUGGGGGUAAGAGAAAUCUAACUGCGCUCCCCCAACCCCUCGCCCUGCCAU | 0.509
UCCUCACUCUUUGUGGAAGGGAAAGCUCAAAGGGACUCUCUCUCUCUCUCUCUUUUUUUUUUUUUUUGAGUAGUACCCUUGCCCUCUUCAUGGCCACUUCAAAGUGAAGC | 1.16

Single results of other studies
Substance | target | assay | system | setting | scale | measurement | value
PhoQ, residues 284 288 289 292 302 303 SSTLLI | PhoP, residues 12 14 15 18 19 NIMAP (Escherichia coli, UniProt P23836) | Sort-seq, refers to: YFP reporter | E. coli | PhoQ-PhoP variant library, added: 10 µM Mg2+ | reference: high Mg2+ state, higher = stronger signaling | fold induction | 0.788
